Published values collected from several papers.
Every numbered part comes from another study and shows a few of its results, in no order.
UniProt P08047, sequence (whole entry, looked up): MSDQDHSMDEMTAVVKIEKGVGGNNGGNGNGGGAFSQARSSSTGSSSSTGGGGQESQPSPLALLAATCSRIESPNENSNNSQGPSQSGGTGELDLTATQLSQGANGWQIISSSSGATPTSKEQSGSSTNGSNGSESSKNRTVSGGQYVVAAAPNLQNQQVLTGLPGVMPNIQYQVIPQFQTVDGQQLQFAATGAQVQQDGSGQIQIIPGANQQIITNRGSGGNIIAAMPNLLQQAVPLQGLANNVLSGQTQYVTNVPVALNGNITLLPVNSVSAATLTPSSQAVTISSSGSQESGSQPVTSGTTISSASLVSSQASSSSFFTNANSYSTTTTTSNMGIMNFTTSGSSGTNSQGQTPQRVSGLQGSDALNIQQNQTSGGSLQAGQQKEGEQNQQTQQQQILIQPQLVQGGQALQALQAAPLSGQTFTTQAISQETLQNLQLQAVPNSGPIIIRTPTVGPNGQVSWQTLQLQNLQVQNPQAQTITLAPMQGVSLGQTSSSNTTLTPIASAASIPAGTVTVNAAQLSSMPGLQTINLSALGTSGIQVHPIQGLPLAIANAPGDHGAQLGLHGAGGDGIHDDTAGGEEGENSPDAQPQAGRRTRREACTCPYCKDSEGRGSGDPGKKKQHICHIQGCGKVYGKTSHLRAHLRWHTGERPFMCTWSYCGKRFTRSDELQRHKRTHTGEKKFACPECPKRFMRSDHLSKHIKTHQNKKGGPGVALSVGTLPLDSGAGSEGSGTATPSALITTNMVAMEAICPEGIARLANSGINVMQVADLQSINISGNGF

Set 1
Cell line: HEK-293T-ACE2
Tested at: concentration not given
Baseline: vehicle
SMILES	cell number
O=C([O-])c1ccccc1[O-].[Bi+3].[OH-]	100%
Cc1ccc([C@@H]2O[C@H](CO)[C@@H](O)[C@H](O)[C@H]2O)cc1Cc1ccc(-c2ccc(F)cc2)s1	97.3%
CC(C)(C)c1nc(-c2cccc(NS(=O)(=O)c3c(F)cccc3F)c2F)c(-c2ccnc(N)n2)s1	90.9%

Set 2
Target: Interferon regulatory factor 7, full length, phosphomimetic (IRF7, Homo sapiens, UniProt Q92985, residues 1-503, S101K/S471D/S472D/S475D/S476D/S477D/S483D/S484D/S487D)
UniProt Q92985, sequence (whole entry, unmodified, looked up): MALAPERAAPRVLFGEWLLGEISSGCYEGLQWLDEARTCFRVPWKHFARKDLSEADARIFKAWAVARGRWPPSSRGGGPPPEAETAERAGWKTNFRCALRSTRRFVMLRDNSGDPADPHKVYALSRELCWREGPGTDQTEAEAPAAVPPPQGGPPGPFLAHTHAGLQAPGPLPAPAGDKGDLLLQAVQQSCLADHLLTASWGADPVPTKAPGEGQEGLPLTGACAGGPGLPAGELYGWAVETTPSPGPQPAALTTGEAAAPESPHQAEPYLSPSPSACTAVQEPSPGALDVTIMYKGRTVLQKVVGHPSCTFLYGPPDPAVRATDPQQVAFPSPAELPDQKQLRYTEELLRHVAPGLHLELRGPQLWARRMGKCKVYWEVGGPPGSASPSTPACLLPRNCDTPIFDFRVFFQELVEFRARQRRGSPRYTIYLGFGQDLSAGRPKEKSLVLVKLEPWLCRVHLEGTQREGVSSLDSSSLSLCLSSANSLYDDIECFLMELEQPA
Method: protein-binding microarray
Molecule type: double-stranded DNA, one strand shown
Medium: in vitro
Tested at: 250 nM
Notes: 60-bp whole probe
With: salmon DNA 0.4 mg/ml
Baseline: random background probes
Reading: higher = stronger binding
Constant ends, left off below: GCCTAGCAC … GTCTTGATTCGCTTGACGCTGCTG
Sequence	log fluorescence [z-score]
TTAGGTATCGGAGTGGGTTAGTGCTAG	-0.432
TCTAGCCTCCATTTTTACCCGTGCTAG	-0.4
TTAGAACTGGGGATTCGATTAGTGCTA	0.629
GACGATATCCGACTGGAGACGTGCTAG	-0.0978
TCATCTCTCTTAAATAGGACTGTGCTA	0.86
TCAAACTTCGGCCTCTAACTGTGCTAG	-0.317
TTAGAACTGAGTTGCGATTAGTGCTAG	0.0633
TTAGGACTGCGTCTCCTTTAGTGCTAG	-0.343

Set 3
Target: Replicase polyprotein 1ab, main protease (rep, Severe acute respiratory syndrome coronavirus 2, UniProt P0DTD1)
Observed: enzyme activity
Mode: inhibitor
Tested at: 20 µM
Notes: hit confirmation
Structure (SMILES)	inhibition [%]
O=C(c1cccs1)c1no[n+]([O-])c1C(=O)c1cccs1	108
CC1(C)C(/C=C/C=C/C=C/C=C2/N(CCCCS(=O)(=O)O)c3ccc4ccccc4c3C2(C)C)=[N+](CCCCS(=O)(=O)[O-])c2ccc3ccccc3c21	60
C[n+]1c2cc(N)ccc2cc2ccc(N)cc21	82.1
CC1(C)CC[C@]2(C(=O)O)CC[C@]3(C)[C@H](C(=O)C=C4[C@@]5(C)C=C(C#N)C(=O)C(C)(C)[C@@H]5CC[C@]43C)[C@@H]2C1	-1.9

Set 4
Target: RNA binding protein fox-1 homolog 2, RRM domain, GST-SBP tag (RBFOX2, Homo sapiens, UniProt O43251-10, residues 100-194)
Method: RNA Bind-n-Seq
Molecule type: RNA
Medium: in vitro
Tested at: 365 nM
Notes: natural RNA segment, single round, ends assumed
Baseline: no-protein control
Reading: higher = stronger binding
Constant ends, left off below: GGGAGUUCUACAGUCCGACGAUC … UGGAAUUCUCGGGUGCCAA
Target sequence (chain): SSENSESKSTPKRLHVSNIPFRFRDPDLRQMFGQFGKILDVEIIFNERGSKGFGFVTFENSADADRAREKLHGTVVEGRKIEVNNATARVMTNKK
Sequence	RBNS enrichment (R)
UUACACCACCGGCCCCCUCCCCCCAGACUCUUUUUUUGAGUGACAGCUUUCUGGGAUGUCACAGUCCAACCAGAAACACCCCUCUGUCUAGGACUGCAGUGUGGAGUUCA	0.449
CUGUUUUUGUUGAAUCGAGUUCUCAAAUCGGUUUAGACCAAAGCCAUUCUUCUGACCCUCUAGAUAAGCGUAGCCUACAACCCAGUGCCGUAAGUUUCCAAGAUUCAAGA	0.228
AAUGCUGUCGAUCAUUGCAAACGCCAUGUGUGGAAUAGUUUCCCAGCUGCAGAAGUCACCUACUUGUGGGUCUAGGGUAAUGAACACAUAGAUCUAUUUGACUUAAUAAG	0.676
AGGUCCAGAGGAGGUGGGCAGGGUCUGUGGUCCUCGUUCUCCAUGCCAUCUCCCUGCCAGCACCCCUUGAGUGUCCACAUCCAGGGACCGAGCCUGGCACAGCUCCCCUA	0.42
UACACAUCCAUUACUUAUUCACUCAUCAGACUGUCAUGAAAUAUUUGUGUUGUUCCAGGGCCUGUGCUAAGCACAGGCACCAAACAUAAAAAGAGAGAAAGUCCUUGCUC	0.363
CAGCUCAGGUUUUAUCACCGACUGGGAAUAGACAACCUCAAUGCUGAACCGCACUGGAGAAAAGGGGCAAGGUACCCCUGCUGAGGUGUAUGGGCUGCCAUCUCAGGCUG	0.483
CAUUUCUGUAUAGCAGGCGUGUGUGUGUGUGUCGAGGUUUUUUAUUUUUUGCUUAAUCAAACUCCAUUCCCAAAUGCACUCCAUCUCUGGCUCUGAGGGCGCUCCCUCCU	0.397
CAGAACUUUCUGAGCUGGCAAAGGCUUAAACAUCUGCCUGGGUUCAGCAGGCAACCUGCCCGUCUGUACAAAAAACUCAAAGGGCUGAGAUGAACGUCUUUCCUCUCCUG	0.213

Set 5
Target: Replicase polyprotein 1ab, polymerase (rep, Severe acute respiratory syndrome coronavirus 2, UniProt P0DTD1)
Observed: enzyme activity
Mode: inhibitor
Tested at: 20 µM
SMILES	inhibition
O=C(Nc1ccncc1)c1cc([N+](=O)[O-])ccc1Cl	4.26%
NC(=O)NCCN1CCN(c2cccc(C(F)(F)F)c2)CC1	-0.21%
OCCn1cc(-c2cnc3nnn(Cc4ccc5ncccc5c4)c3n2)cn1	4.28%
O=C(O)CC(S)C(=O)O (stereo not drawn)	-0.33%
CCC[C@H](N[C@@H](C)C(=O)N1[C@H](C(=O)O)C[C@@H]2CCCC[C@@H]21)C(=O)OCC	-4.66%
O=C(O)CCC(=O)Nc1ccc(S(=O)(=O)Nc2nccs2)cc1	11.1%
C[C@]12CC[C@@H]3c4ccc(O)cc4CC[C@H]3[C@@H]1C[C@@H](O)[C@@H]2O	-2.89%
Cn1cc(C2=C(c3cn(CCCSC(=N)N)c4ccccc34)C(=O)NC2=O)c2ccccc21	8.98%
CCC(CC)Nc1cc(C)nc(Oc2c(C)cc(C)cc2C)c1C	0.09%
Cc1cccc(/C=N/Nc2cc(N3CCOCC3)n3nc(-c4ccncc4)cc3n2)c1	-4.8%
COc1cc(F)c(C(C)C)cc1-c1ccc(C(F)(F)F)cc1CN1C(=O)O[C@H](c2cc(C(F)(F)F)cc(C(F)(F)F)c2)[C@@H]1C	1.29%
CCC(C)c1ccc(NC(=O)Cn2cnc3c2c(=O)n(C)c(=O)n3C)cc1 (stereo not drawn)	3.74%
COC(=O)/C=C/C(=O)OC	-2.93%
CC(C)[C@H](NS(=O)(=O)c1ccc(-c2ccc(Br)cc2)cc1)C(=O)O	-1.25%
CC[C@H](C(=O)N1CCCC[C@H]1C(=O)O[C@H](CCc1ccc(OC)c(OC)c1)c1cccc(OCC(=O)NCCNC(=O)COc2cccc([C@@H](CCc3ccc(OC)c(OC)c3)OC(=O)[C@@H]3CCCCN3C(=O)[C@@H](CC)c3cc(OC)c(OC)c(OC)c3)c2)c1)c1cc(OC)c(OC)c(OC)c1	0.7%
CO[C@@]1(NC(=O)C(C(=O)O)c2ccc(O)cc2)C(=O)N2C(C(=O)O)=C(CSc3nnnn3C)CO[C@@H]21 (stereo partly drawn)	16.9%
CC1(COc2ccc3c(c2)ncn3-c2ccc3cccc(N4CCC(N)CC4)c3n2)COC1	6.05%
Cc1ccccc1C(=O)Nc1ccc(C(=O)N2CCCC(N(C)C)c3ccccc32)cc1 (stereo not drawn)	-3.7%
C[C@H](N)Cc1cccc(O)c1	-2.07%
CS(=O)(=O)c1ccc(Oc2cc(F)cc(C#N)c2)c2c1[C@H](O)C(F)(F)C2	1.88%
CC(=O)OCC(=O)[C@@]1(OC(C)=O)[C@@H](C)C[C@H]2[C@@H]3C[C@H](F)C4=CC(=O)C=C[C@]4(C)[C@@]3(F)[C@@H](O)C[C@@]21C	0.46%
COc1ccccc1N1CCN(CCCCNC(=O)c2ccc(-c3ccc(C(C)=O)cc3)cc2)CC1	0.55%
COc1cc(Cc2cnc(N)nc2N)cc(OC)c1OC	2.31%
Oc1ccc2c3c1O[C@H]1c4[nH]c5ccccc5c4C[C@@]4(O)[C@@H](C2)N(CC2CC2)CC[C@]314	5.84%
CC1=C(C(=O)OC(C)C)C(c2cccc([N+](=O)[O-])c2)C(C(=O)OC2CN(C(c3ccccc3)c3ccccc3)C2)=C(N)N1 (stereo not drawn)	-6.08%

Set 6
Target: Histone acetyltransferase KAT6A, winged helix 2, GST fusion (KAT6A, Homo sapiens, UniProt Q92794, residues 85-181)
Method: protein binding microarray
Molecule type: double-stranded DNA, one strand shown
Medium: in vitro
Tested at: not given
Notes: 8-mer, flanks averaged, mean of 2 arrays, mostly near background
Baseline: not given
Reading: higher = stronger binding
Target sequence (chain): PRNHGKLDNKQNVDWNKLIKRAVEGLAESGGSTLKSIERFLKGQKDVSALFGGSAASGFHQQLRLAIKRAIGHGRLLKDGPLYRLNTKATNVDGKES
Sequence	E-score
TATAAGGA	0.123
ATCTCGCC	0.0514
CGAGAATC	0.061
AACAACAA	0.122
AGCCTTAC	-0.162
CCGTACTC	-0.0674
CGACGAAA	0.0581
AGATGCTA	0.033

Other studies, line by line
Sequence	target	assay	system	setting	how to read	measurement	value
ACGCCTCC	Transcription factor Sp1 (SP1, Homo sapiens, UniProt P08047, residues 1-785, full length assumed)	protein-binding microarray	double-stranded DNA, one strand shown, in vitro	not given, k-mer, scored over probes, only values ≥0.25	higher = stronger binding	E-score	0.356

Some of these lines once more (set 5):
SMILES	inhibition
CCC(CC)Nc1cc(C)nc(Oc2c(C)cc(C)cc2C)c1C	0.09%
Cn1cc(C2=C(c3cn(CCCSC(=N)N)c4ccccc34)C(=O)NC2=O)c2ccccc21	8.98%
COc1cc(Cc2cnc(N)nc2N)cc(OC)c1OC	2.31%
CCC(C)c1ccc(NC(=O)Cn2cnc3c2c(=O)n(C)c(=O)n3C)cc1 (stereo not drawn)	3.74%
C[C@]12CC[C@@H]3c4ccc(O)cc4CC[C@H]3[C@@H]1C[C@@H](O)[C@@H]2O	-2.89%
CC(C)[C@H](NS(=O)(=O)c1ccc(-c2ccc(Br)cc2)cc1)C(=O)O	-1.25%
NC(=O)NCCN1CCN(c2cccc(C(F)(F)F)c2)CC1	-0.21%
CC1=C(C(=O)OC(C)C)C(c2cccc([N+](=O)[O-])c2)C(C(=O)OC2CN(C(c3ccccc3)c3ccccc3)C2)=C(N)N1 (stereo not drawn)	-6.08%
